Measurements of several laboratories.
Each line is one published result; not all experiments were run side by side. ± marks the error that the study gave.

SMILES | cell line | read-out | technique | concentration | time | notes | viability [%]
CC(C)=CCc1cc(-c2coc3cc(O)c(CC=C(C)C)c(O)c3c2=O)ccc1O | SW480 | cell growth or viability | MTT | 100 µg/mL |  |  | 6.42
C=CS(=O)(=O)NCCCCCCCCOCc1cn(CCCCCCCCNS(=O)(=O)C=C)n[n+]1C | L929 | cell growth or viability | resazurin | 50 µM | 72 h |  | 37
Cc1ccccc1C(c1c[nH]c(=O)[nH]c1=O)c1c[nH]c(=O)[nH]c1=O | Mo7e | cell growth or viability | WST-1 | 1 µg/mL | 24 h |  | > 90
COc1cc2c(cc1O)[C@]1(O)C(=O)c3c(O)cc4c(c3O[C@@H]1CO2)C=CC(C)(C)O4 | SW480 | cell growth or viability | MTT | 50 µg/mL |  |  | 7.72
C=CC(=O)Nc1cccc2c1cc(C)n2-c1nc2c(c(NCc3ccccc3)n1)CCCC2 | Huh-7 cells, uninfected |  |  | 0.1 µM | 5 days |  | 95 ± 2
N#Cc1c(NC(=O)CN2CCOCC2)sc2c1CCC(c1ccccc1)C2 (stereo not shown) | LoVo | cell growth or viability | LDH | 100 µg/mL | 24 h |  | 79.5
CC(C)=CCc1c2c(c(O)c3c(=O)c(-c4ccc(O)cc4)coc13)CC(C(C)(C)O)O2 (stereo not shown) | SW480 | cell growth or viability | MTT | 6.25 µg/mL |  |  | 143
COc1ccc([C@@H]2CC(=O)c3c(O)cc(O[C@@H]4O[C@H](CO[C@@H]5O[C@@H](C)[C@H](O)[C@@H](O)[C@H]5O)[C@@H](O[C@H]5O[C@H](CO)[C@@H](O)[C@H](O)[C@H]5O)[C@H](O)[C@H]4O)cc3O2)cc1O | MRC5 | cell growth or viability | MTS | 100 µg/mL | 48 h |  | 55.4
Cc1ccc(C(C)C)cc1.Oc1ccccc1C=NNC1=Nc2ccccc2-c2[nH]c3ccc(Br)cc3c2C1.[Cl-].[Cl][Ru+] | SW480 |  | annexin V/PI flow cytometry | 5 µM | 48 h |  | 15
O=c1[nH]cc(C(c2ccc(Cl)cc2)c2c[nH]c(=O)[nH]c2=O)c(=O)[nH]1 | Mo7e | cell growth or viability | WST-1 | 1 µg/mL | 24 h |  | > 90
CC12CCCC(n3cc(C(=O)N4CCCC(N)C4)nn3)(C1)C1CC(C)(C)C1CC2 (stereo not shown) | HT-29 |  |  | 0.5 µM | 72 h | without NAC pretreatment | 72.6
C=CS(=O)(=O)NCCCCCCOCc1cn(CCCCCCNS(=O)(=O)C=C)n[n+]1C | L929 | cell growth or viability | resazurin | 50 µM | 72 h |  | 49.5
O=C1CCNCN1Cc1ccccc1 | DH82 | cell growth or viability | MTT | 200 µM | 24 h |  | 98.3
C=CS(=O)(=O)NCCCCCCOCc1cn(CCCCCCNS(=O)(=O)C=C)nn1 | L929 | cell growth or viability | resazurin | 50 µM | 72 h |  | 21.1
O=c1[nH]cc(C(c2ccccc2Br)c2c[nH]c(=O)[nH]c2=O)c(=O)[nH]1 | Mo7e | cell growth or viability | WST-1 | 1 µg/mL | 24 h |  | > 90
COc1ccc(-c2coc3c(CC=C(C)C)c(O)c(CC=C(C)C)c(O)c3c2=O)cc1O | SW480 | cell growth or viability | MTT | 25 µg/mL |  |  | 72
